{"data": "Assay results collected from several papers", "note": "Lines come from different studies, so protocols differ. Values joined by “and” are separate records of one study, mostly repeats; a detail may differ. ± marks the error that the study gave."}
{"SMILES": "Nc1cccc2c1C(=O)N(C1CCC(=O)NC1=O)C2=O (centres unmarked)", "cell line": "RPMI-8226", "assay": "flow cytometry, measured: CD43", "conditions": "concentration not given", "scale": "baseline: comparator compound alone", "measurement": "surface marker level", "value": "50.5%"}
{"SMILES": "COc1cc(-c2cnn(C)c2C)ccc1Nc1ncc2ccnc(NCC(C)(C)C)c2n1", "cell line": "CAL-51", "assay": "cell growth", "conditions": "72 h", "measurement": "GI50", "value": "0.27 µM"}
{"SMILES": "CC(=O)Nc1cccc(-n2c(=O)n(C3CC3)c(=O)c3c(Nc4ccc(I)cc4F)n(C)c(=O)c(C)c32)c1", "cell line": "SK-MEL-239 (BRAF V600E)", "conditions": "0.05 µM, 72 h", "measurement": "viability", "value": "19%"}
{"SMILES": "CCOc1cc2ncc(C#N)c(Nc3ccc(F)c(Cl)c3)c2cc1NC(=O)/C=C/CN(C)C", "cell line": "BT-16", "assay": "cell viability, MTT", "conditions": "10 µM, 72 h", "measurement": "inhibition", "value": "91.9%"}
{"SMILES": "CCn1cc(-c2cc(Cn3ccnc3)cc3c2CCN([C@H](c2cc(OC)ccn2)C2CC2)C3=O)c(C(F)(F)F)n1", "cell line": "HCC1588", "assay": "cell growth, inhibitor", "conditions": "120 h", "measurement": "EC50", "value": "8.09 µM"}
{"SMILES": "O=C1[C@H]2CCCN2[C@H](c2cccc3c2OCO3)N1c1ccc(Cl)c(Cl)c1 (racemic)", "cell line": "PC-12 cells expressing mutant huntingtin", "assay": "carbachol-stimulated IP3R Ca2+ release", "conditions": "50 µM, 2 days, with: 1 mM carbachol", "scale": "baseline: mutant huntingtin alone", "measurement": "Ca2+ release", "value": "no effect"}
{"SMILES": "Cn1cc(-c2ccc(-c3cncc(Cl)c3N3CCC4(CCNC4=O)CC3)cc2)cn1", "cell line": "COLO 205", "assay": "gene expression, microarray, measured: HIST4H4 mRNA", "conditions": "concentration not given, 6 h", "scale": "baseline: untreated cells", "measurement": "log2 fold change", "value": -1.42}
{"SMILES": "Cc1nn(-c2nc3c(F)cc(F)cc3s2)c(O)c1C(c1ccc(C(F)(F)F)cc1)c1c(C)nn(-c2nc3c(F)cc(F)cc3s2)c1O", "cell line": "THP1-Dual", "assay": "IFN luciferase reporter", "conditions": "10 µM, with: HT-DNA", "measurement": "inhibition", "value": "36.5% and 20.6% and 36.8% and 20.5% and 36.2% and 40.2%"}
{"SMILES": "Cc1ncsc1-c1ccc(CNC(=O)[C@@H]2C[C@@H](O)CN2C(=O)[C@@H](NC(=O)CCCCCCCCCC(=O)N2CCN(CC[C@H](NC(=O)C3(N)CCN(c4ncnc5[nH]ccc45)CC3)c3ccc(Cl)cc3)CC2)C(C)(C)C)cc1", "cell line": "PC-3", "assay": "flow cytometry", "conditions": "concentration not given, 48 h", "measurement": "G2/M phase cells", "value": "41.2%"}
{"SMILES": "CC/C(=N\\NC(=O)C(C)Nc1ccccc1)c1ccc(O)c(C)c1O (centres unmarked)", "cell line": "SK-OV-3", "assay": "Western blot, measured: TAZ", "conditions": "10 µM, 3 h, 2D culture, unit not given", "scale": "baseline: β-actin", "measurement": "protein level", "value": "1.82 ± 0.93"}
{"SMILES": "CCN(CC)C(=S)SSC(=S)N(CC)CC", "cell line": "BT-16", "assay": "cell viability, MTT", "conditions": "10 µM, 72 h", "measurement": "inhibition", "value": "89.2%"}
{"SMILES": "COc1ccc(-n2nc(C(C)=O)s/c2=N\\N=C(/C)c2ccc(NC(=O)c3ccc(Cl)cc3)cc2)cc1", "cell line": "HepG2", "conditions": "10 µM", "measurement": "toxicity", "value": "93.9%"}
{"SMILES": "Cc1c(C)c2c(c(C)c1O)CCC(C)(COc1ccc(CC3SC(=O)NC3=O)cc1)O2 (centres unmarked)", "cell line": "iPSC-derived hepatocytes B2", "assay": "cell viability", "conditions": "48 h, differentiation day 23", "measurement": "IC50", "value": "43 µM"}
{"SMILES": "CC(C)NCC(O)c1ccc(O)c(O)c1 (centres unmarked)", "cell line": "mouse ventricular cardiomyocytes", "conditions": "dose not given, 0.295 s", "measurement": "sarcomere length", "value": "1.8 µm"}
{"SMILES": "Nc1ccc(-c2ccc3ncc4ccc(=O)n(-c5cccc(C(F)(F)F)c5)c4c3c2)cn1", "cell line": "BT-16", "assay": "cell viability, MTT", "conditions": "10 µM, 72 h", "measurement": "inhibition", "value": "94.2%"}
{"SMILES": "C=CC1=C(C)c2cc3[n-]c(cc4nc(cc5[n-]c(cc1n2)c(C)c5C=C)C(C)=C4CCC(=O)O)c(CCC(=O)O)c3C.[Zn+2]", "cell line": "SH-SY5Y", "assay": "RNA-seq, measured: FHL2 mRNA", "conditions": "5 µM, 5 h", "scale": "baseline: untreated cells", "measurement": "fold change", "value": 1.67}
{"SMILES": "Cc1cc(C2CCCCC2)n(O)c(=O)c1", "cell line": "BT-16", "assay": "cell viability, MTT", "conditions": "10 µM, 72 h", "measurement": "inhibition", "value": "86.6%"}
{"SMILES": "COc1cnc2cccc(N3CCc4c(cc(Cn5ccnc5C)cc4-c4cn(C)nc4C(F)(F)F)C3=O)c2c1", "cell line": "Calu-3", "assay": "cell growth, inhibitor", "conditions": "120 h", "measurement": "EC50", "value": "> 30 µM"}
{"SMILES": "CC(C)c1nc(CN(C)C(=O)N[C@@H](CCN2CCOCC2)C(=O)N[C@H](CC[C@H](Cc2ccccc2)NC(=O)OCc2cncs2)Cc2ccccc2)cs1", "cell line": "ΔE-expressing cells", "assay": "ΔE mislocalization, high-content imaging", "measurement": "maximal efficacy", "value": "82%"}
{"SMILES": "CCc1cnc(N2CCC(c3nc(COc4ccc(-n5cnnn5)cc4)cs3)CC2)nc1", "cell line": "HEK-293T", "assay": "RNA-seq GSEA, measured: HALLMARK_PEROXISOME", "conditions": "concentration not given", "scale": "direction not given", "measurement": "normalized enrichment score", "value": 0.763}
{"note": "Excerpt of the above:"}
{"SMILES": "Nc1cccc2c1C(=O)N(C1CCC(=O)NC1=O)C2=O (centres unmarked)", "cell line": "RPMI-8226", "assay": "flow cytometry, measured: CD43", "conditions": "concentration not given", "scale": "baseline: comparator compound alone", "measurement": "surface marker level", "value": "50.5%"}
{"SMILES": "CC/C(=N\\NC(=O)C(C)Nc1ccccc1)c1ccc(O)c(C)c1O (centres unmarked)", "cell line": "SK-OV-3", "assay": "Western blot, measured: TAZ", "conditions": "10 µM, 3 h, 2D culture, unit not given", "scale": "baseline: β-actin", "measurement": "protein level", "value": "1.82 ± 0.93"}
